Measurements collected from several papers.
± gives the spread as reported.
TDP1: Tyrosyl-DNA phosphodiesterase 1 (TDP1, Homo sapiens, UniProt Q9NUW8)
Chain of UniProt Q9NUW8 (whole entry, looked up): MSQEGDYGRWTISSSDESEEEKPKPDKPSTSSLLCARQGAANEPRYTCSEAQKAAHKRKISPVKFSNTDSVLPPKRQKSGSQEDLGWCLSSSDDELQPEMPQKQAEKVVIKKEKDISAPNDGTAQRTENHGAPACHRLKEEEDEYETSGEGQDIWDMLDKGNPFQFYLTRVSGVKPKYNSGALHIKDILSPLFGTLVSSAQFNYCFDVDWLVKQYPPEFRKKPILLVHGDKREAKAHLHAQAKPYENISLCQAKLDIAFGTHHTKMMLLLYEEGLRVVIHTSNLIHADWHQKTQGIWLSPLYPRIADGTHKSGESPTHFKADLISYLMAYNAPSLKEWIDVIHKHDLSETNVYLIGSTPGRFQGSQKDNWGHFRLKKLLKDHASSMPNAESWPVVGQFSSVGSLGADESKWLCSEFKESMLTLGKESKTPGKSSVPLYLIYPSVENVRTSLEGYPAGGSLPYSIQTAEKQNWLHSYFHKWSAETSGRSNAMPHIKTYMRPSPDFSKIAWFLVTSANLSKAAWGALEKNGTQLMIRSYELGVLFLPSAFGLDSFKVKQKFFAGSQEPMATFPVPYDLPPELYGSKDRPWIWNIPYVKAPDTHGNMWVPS

SMILES | target or system | assay | test system | setting | how to read | quantity | value
C/C=C(/C)C(=O)O[C@@H]1C=C(C)CC[C@]2(O)[C@@H](C(C)C)CC(=O)[C@]12C | Helicobacter pylori | microbial growth, broth dilution | – | 0.48 µg/mL | – | inhibition | 0%
COCC1CN(C2CCN(c3cc(OC)c(Nc4ncc(Br)c(Nc5ccc6c(c5P(C)(C)=O)OCCO6)n4)cc3C)CC2)C1 | – | RECIST 1.1 | advanced EGFR-mutant NSCLC patients | 10 mg once daily | – | objective response rate | 0%
CN1CCCNC(=O)c2cccc(c2)C(=O)NCCCN(C)CCCNc2cccc3c2C(=O)c2cccc(c2C3=O)NCCC1 | SAS | RNA-Seq, refers to: ATAD1 mRNA | – | 1 µM, 6 h | reference: untreated cells | log2 fold change | -1.22
COc1ccc(C(=O)CCc2cc(C(CCc3ccc(O)cc3OC)c3ccc(O)cc3)c(O)cc2OC)cc1 (racemic) | – | – | human blood | 3 µM, together with: A23187 | – | 12-HETE level | 12300 ± 4290 pg/mL
Cc1c(C=NOCc2ccc(-c3nc4cc(-c5ccccc5)ccn4c3Nc3ccc(C(=O)O)cc3)cc2)c2ccccc2n1CC(=O)O (mixture of isomers) | TDP1 | enzyme activity, inhibitor | – | 100 µM, unpurified compound | – | inhibition | 79.3%
CCN(CC)CC(=O)Nc1cccc(-n2cc(-c3ccc4ccc(-c5cn(-c6cccc(NC(=O)CN(CC)CC)c6)nn5)cc4c3)nn2)c1 | RCC4 | PCR angiogenesis array, refers to: CCL11 | – | 5 x IC50, 6 h, normoxia | reference: untreated | fold regulation | 1.38
COc1cc(O)ccc1CCC(c1ccc(O)cc1)c1cc2c(c(C)c1O)OC(c1ccc(O)cc1)CC2 (mixture of isomers) | – | – | human blood | 3 µM, together with: A23187 | – | 12-HETE level | 4390 ± 555 pg/mL
CNS(=O)(=O)Nc1nccc(Cc2c(C)c3ccc(Oc4ncccc4F)cc3oc2=O)c1F | SNU-8 | cell viability, CellTiter-Glo | – | 7 days | – | IC50 | 2.6 nM
Cc1ncsc1-c1ccc(C(C)NC(=O)C2CC(O)CN2C(=O)C(NC(=O)CCCCCCCCCCN2CCCC(Nc3ncc(Cl)c(Nc4ccccc4S(=O)(=O)C(C)C)n3)C2)C(C)(C)C)cc1 (stereo not drawn) | 22Rv1 | RNA-seq, refers to: MEIS1 mRNA | – | concentration not given | reference: DMSO | log2 fold change | -1.54
COCCOCCOCCNC(=O)Cc1cc(CC(=O)N[C@H]2C[C@H]3C(=O)Nc4cc(OCCOCCOCCOC)cc(n4)C(=O)N4CCC[C@H]4C(=O)Nc4cc(OCCOCCOCCOC)cc(n4)C(=O)N4CCC[C@H]4C(=O)Nc4cc(OCCOCCOCCOC)cc(n4)C(=O)N3C2)cc(CC(=O)N[C@H]2C[C@H]3C(=O)Nc4cc(OCCOCCOCCOC)cc(n4)C(=O)N4CCC[C@H]4C(=O)Nc4cc(OCCOCCOCCOC)cc(n4)C(=O)N4CCC[C@H]4C(=O)Nc4cc(OCCOCCOCCOC)cc(n4)C(=O)N3C2)c1 | – | anion binding, ITC | phosphate buffer 35 mM | pH 7.4, 298 K, together with: sodium sulfate | – | TΔS | 24.6 ± 0.3 kJ mol^–1
Cn1ncc2cc(-c3cncc(Cl)c3N3CCC4(CCNC4=O)CC3)ccc21 | LS174T | gene expression, microarray, refers to: CACNA1H mRNA | – | concentration not given, 4 h | reference: untreated cells | log2 fold change | 1.73
C=CC(=O)Nc1cccc(Cn2ncc3cnc(Nc4cnn(CCOC)c4)nc32)c1 | EPHA5 human | binding, KINOMEscan | – | 100 nM | lower = stronger binding | percent of control | 80%
CO[C@@H]1OC[C@@H](O)[C@H](O)[C@H]1O | Helicobacter pylori | microbial growth, broth dilution | – | 3.9 µg/mL | – | inhibition | 0%
Nc1ncc(-c2cc(-c3cnn(CC(F)(F)F)c3)ncc2F)nc1C(=O)NC1CNCC(F)C1 (stereo not drawn) | FLT1 | KINOMEscan | – | 1 µM | reference: DMSO control | remaining binding | 43%
CC(C)(C)NCC(SS(=O)(=O)O)c1ccccc1 (stereo not drawn) | Schistosoma mansoni | – | infected mice | 100 mg/kg single, day 42, perfusion day 56 | reference: vehicle | female worm burden reduction | 83%
COC1CN([C@H]2CC[C@H]([C@@]3(C)Oc4c(Cl)cc(C(=O)NCc5c(SC)cc(C)[nH]c5=O)c(C)c4O3)CC2)C1 | – | RNA-seq, refers to: RELN | human, whole blood | dose not given, 24 h | reference: pretreatment baseline | log2 fold change | 5.19
O=C(O)c1ccc(Nc2c(-c3ccccc3)nc3ccc(CON=Cc4cccc(N5CCCCC5)n4)cn23)cc1 | TDP1 | enzyme activity, inhibitor | – | 100 µM, unpurified compound | – | inhibition | 2.9%
C=C(NC(=O)c1csc(-c2nc3c(cc2O)-c2nc(cs2)C(=O)NC(C(C)O)C(=O)NC(=C(C)OC)c2nc(cs2)C(=O)NC2c4nc(cs4)C(=O)NC(COC(=O)c4c5c6c(cccc6n4O)COC(=O)C(OC4CC(C)(O)C(N(C)C)C(C)O4)C2OC5)c2nc-3cs2)n1)C(N)=O (stereo not drawn) | Streptococcus pneumoniae | – | -4, immunocompromised mice, lung | 4 mg/kg/day thrice daily, 24 h post-dose | – | lung bacterial load | 5.54 log10 CFU/lung
c1ccc(-c2n[nH]cc2-c2ccnc3ccccc23)nc1 | NPR1 (Candida albicans) | kinase binding, MIB/MS competition | Candida albicans lysate | 10 µM | reference: DMSO | log2 fold change | -0.08
CC=C(C)C(=O)OC1CC2C(C=C(C)C3C(OC(C)=O)CC(=O)C13C)OC(=O)C2C (stereo not drawn) | Helicobacter pylori | microbial growth, broth dilution | – | 0.48 µg/mL | – | inhibition | 0%
C=CC(=O)N1[C@@H](c2ccc3c(c2)OCO3)c2[nH]c3ccccc3c2C[C@H]1C(=O)N1CCN(C)CC1 | human cyclin E1 wild type-3xFLAG:CDK2 | co-IP with TMT proteomics, refers to: RPS5 | – | concentration not given, P46782 | reference: wild type DMSO | relative co-enrichment | 105%

Excerpt of the above:
SMILES | target or system | assay | test system | setting | how to read | quantity | value
CNS(=O)(=O)Nc1nccc(Cc2c(C)c3ccc(Oc4ncccc4F)cc3oc2=O)c1F | SNU-8 | cell viability, CellTiter-Glo | – | 7 days | – | IC50 | 2.6 nM
C=CC(=O)N1[C@@H](c2ccc3c(c2)OCO3)c2[nH]c3ccccc3c2C[C@H]1C(=O)N1CCN(C)CC1 | human cyclin E1 wild type-3xFLAG:CDK2 | co-IP with TMT proteomics, refers to: RPS5 | – | concentration not given, P46782 | reference: wild type DMSO | relative co-enrichment | 105%
C=CC(=O)Nc1cccc(Cn2ncc3cnc(Nc4cnn(CCOC)c4)nc32)c1 | EPHA5 human | binding, KINOMEscan | – | 100 nM | lower = stronger binding | percent of control | 80%
